Published values of several laboratories.
A part holds a random share of what one study measured.
Sequence of UniProt P51451 (whole entry, looked up): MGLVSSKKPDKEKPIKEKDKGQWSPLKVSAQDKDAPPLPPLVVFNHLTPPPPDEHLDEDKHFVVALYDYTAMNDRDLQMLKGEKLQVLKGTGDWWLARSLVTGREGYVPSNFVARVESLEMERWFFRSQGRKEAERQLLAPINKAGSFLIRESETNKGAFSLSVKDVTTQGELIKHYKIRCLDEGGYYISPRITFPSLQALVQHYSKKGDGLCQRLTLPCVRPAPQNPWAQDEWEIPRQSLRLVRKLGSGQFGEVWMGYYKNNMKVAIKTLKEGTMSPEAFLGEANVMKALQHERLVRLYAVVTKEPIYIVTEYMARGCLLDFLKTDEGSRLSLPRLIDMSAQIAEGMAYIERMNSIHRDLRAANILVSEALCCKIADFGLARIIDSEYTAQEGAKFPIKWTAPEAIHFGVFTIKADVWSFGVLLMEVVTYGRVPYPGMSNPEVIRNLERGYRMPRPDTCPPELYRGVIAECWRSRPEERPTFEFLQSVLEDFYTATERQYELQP
Sequence of UniProt Q9UK32 (whole entry, looked up): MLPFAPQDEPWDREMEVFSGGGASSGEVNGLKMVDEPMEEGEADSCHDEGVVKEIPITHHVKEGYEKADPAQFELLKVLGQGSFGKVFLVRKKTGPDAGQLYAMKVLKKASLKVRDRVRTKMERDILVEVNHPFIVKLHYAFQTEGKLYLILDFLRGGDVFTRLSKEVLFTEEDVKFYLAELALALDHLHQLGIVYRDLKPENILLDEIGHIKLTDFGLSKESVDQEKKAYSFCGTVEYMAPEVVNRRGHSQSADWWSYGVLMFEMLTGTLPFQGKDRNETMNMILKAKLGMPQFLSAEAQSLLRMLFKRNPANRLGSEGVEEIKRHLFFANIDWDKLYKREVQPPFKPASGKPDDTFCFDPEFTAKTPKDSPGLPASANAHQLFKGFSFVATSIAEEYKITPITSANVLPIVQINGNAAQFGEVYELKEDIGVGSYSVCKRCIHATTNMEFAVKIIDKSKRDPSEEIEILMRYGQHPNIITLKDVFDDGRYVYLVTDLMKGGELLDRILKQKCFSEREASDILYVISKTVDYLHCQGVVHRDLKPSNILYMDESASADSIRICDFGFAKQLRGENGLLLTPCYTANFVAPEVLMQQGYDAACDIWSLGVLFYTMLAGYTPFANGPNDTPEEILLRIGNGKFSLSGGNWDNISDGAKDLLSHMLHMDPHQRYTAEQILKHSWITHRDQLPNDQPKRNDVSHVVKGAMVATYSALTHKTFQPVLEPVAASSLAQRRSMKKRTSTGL
Sequence of UniProt Q13554 (whole entry, looked up): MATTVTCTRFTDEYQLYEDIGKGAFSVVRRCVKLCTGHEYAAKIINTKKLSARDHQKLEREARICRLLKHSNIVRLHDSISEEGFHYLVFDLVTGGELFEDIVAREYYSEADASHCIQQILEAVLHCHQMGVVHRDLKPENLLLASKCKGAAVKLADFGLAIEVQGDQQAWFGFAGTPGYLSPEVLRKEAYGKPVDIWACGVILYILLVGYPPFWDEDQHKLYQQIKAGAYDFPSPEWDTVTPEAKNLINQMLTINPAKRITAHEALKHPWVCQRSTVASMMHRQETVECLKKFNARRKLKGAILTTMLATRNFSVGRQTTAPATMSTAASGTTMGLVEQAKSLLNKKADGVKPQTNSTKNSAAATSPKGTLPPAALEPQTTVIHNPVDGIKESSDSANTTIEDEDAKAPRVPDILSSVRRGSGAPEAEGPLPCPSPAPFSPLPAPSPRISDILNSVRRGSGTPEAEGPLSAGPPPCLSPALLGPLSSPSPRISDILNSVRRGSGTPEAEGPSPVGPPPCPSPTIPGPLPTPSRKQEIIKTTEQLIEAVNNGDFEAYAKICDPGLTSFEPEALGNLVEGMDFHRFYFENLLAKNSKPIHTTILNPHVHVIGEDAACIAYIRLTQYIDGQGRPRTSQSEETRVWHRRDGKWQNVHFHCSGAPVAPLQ
Sequence of UniProt O43318 (whole entry, looked up): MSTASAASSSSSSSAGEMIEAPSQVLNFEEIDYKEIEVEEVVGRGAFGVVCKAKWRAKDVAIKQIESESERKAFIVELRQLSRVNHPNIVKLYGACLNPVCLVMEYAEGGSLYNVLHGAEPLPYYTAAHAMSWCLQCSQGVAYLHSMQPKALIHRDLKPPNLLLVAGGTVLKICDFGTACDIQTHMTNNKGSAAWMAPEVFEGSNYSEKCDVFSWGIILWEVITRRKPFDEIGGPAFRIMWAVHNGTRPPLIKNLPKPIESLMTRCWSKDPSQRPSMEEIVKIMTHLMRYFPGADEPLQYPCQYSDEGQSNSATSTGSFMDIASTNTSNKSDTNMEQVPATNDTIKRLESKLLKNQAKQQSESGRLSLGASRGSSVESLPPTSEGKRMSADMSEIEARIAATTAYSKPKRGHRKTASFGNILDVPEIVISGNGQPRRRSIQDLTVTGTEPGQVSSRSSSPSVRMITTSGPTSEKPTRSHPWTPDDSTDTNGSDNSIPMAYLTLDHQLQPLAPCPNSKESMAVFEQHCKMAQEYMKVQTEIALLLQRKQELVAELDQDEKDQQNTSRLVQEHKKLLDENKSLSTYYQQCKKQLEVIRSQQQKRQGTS
Sequence of UniProt Q00534 (whole entry, looked up): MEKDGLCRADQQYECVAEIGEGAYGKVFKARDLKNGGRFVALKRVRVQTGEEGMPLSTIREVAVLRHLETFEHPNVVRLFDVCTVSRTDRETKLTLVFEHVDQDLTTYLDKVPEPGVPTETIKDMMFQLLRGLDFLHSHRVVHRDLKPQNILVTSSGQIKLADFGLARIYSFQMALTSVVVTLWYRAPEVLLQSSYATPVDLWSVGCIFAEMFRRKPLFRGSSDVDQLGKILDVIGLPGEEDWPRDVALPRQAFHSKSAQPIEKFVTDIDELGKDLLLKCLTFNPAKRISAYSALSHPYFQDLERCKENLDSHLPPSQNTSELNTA
Sequence of UniProt P42336 (whole entry, unmodified, looked up): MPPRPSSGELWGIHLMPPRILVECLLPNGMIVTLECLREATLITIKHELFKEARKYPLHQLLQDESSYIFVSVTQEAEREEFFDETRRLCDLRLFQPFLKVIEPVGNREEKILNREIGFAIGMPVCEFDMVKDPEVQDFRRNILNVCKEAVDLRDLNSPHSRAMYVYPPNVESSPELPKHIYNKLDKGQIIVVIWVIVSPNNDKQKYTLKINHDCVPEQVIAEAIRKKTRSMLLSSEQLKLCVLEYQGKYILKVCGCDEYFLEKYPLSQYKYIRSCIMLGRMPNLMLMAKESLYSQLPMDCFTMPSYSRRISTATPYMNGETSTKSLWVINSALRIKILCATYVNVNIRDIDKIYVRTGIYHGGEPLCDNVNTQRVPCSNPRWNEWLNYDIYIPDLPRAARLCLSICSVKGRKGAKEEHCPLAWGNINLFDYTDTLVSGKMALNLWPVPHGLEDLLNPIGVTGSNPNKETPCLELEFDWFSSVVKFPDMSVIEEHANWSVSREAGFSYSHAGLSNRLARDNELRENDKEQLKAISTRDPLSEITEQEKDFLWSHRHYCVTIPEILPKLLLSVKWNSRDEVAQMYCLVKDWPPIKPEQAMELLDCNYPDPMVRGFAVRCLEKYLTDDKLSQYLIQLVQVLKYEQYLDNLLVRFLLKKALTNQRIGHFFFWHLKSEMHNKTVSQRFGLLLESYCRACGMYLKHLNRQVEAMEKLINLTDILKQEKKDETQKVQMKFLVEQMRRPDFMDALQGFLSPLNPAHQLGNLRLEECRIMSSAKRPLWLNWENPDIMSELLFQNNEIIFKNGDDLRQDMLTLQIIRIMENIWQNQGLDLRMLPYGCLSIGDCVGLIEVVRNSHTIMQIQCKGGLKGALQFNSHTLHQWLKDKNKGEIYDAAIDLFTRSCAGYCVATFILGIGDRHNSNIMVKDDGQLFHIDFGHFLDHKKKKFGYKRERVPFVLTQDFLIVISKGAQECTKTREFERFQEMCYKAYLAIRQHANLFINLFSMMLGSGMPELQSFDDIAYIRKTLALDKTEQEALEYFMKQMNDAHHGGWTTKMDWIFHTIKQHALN
Sequence of UniProt Q8NE63 (whole entry, looked up): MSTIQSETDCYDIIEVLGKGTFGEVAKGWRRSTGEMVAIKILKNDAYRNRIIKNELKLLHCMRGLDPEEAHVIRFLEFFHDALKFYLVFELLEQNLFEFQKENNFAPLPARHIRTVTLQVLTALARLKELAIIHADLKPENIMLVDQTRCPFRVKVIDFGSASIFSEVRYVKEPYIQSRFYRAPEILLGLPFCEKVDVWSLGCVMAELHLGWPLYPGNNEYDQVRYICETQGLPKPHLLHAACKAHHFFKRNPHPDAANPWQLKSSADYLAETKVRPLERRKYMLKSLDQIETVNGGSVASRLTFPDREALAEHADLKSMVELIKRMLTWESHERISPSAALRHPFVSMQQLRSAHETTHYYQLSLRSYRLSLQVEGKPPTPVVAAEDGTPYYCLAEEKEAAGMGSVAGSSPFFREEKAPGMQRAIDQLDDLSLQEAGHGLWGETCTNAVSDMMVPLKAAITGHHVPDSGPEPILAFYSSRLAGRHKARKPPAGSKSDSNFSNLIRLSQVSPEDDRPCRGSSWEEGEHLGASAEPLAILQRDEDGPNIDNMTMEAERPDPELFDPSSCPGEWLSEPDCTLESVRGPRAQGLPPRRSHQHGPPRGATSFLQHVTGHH
Sequence of UniProt Q8WU08 (whole entry, looked up): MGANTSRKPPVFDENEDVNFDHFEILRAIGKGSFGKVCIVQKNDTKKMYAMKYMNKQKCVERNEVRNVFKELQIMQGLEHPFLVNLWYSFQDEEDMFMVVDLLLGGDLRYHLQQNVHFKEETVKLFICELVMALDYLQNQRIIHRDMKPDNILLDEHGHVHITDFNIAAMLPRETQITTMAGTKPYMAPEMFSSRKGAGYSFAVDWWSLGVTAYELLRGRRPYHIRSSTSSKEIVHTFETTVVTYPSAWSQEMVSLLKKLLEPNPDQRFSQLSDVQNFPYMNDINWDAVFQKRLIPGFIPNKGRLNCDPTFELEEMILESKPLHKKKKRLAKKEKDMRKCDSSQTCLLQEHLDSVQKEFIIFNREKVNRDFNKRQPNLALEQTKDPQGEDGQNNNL

Block 1
Species: mouse
Medium: microsomes or S9
Concentration: 2 µM
Time: 0.5 h
| SMILES | remaining compound [%] |
| --- | --- |
| COc1ccc2c(n1)c1c(n2-c2ccccn2)CCC1 | 0.298 |
| COc1ccc(CNc2ccc(C(=O)N3CCN(Cc4ccc(OC)c(OC)c4OC)CC3)cc2S(=O)(=O)Nc2cccc(OC)c2)cc1 | 2.38 |
| Cc1c(CN2C[C@H]3CC[C@@H](C2)NC3)oc2ccccc12 | 46 |
| CCOc1ccccc1NC(=O)c1cc2cc(C)ccc2[nH]1 | 47 |
| O=c1[nH]ncc(Nc2ccc3[nH]ncc3c2)c1Br | 4.76 |
| CC(=O)c1c[nH]c(C(=O)Nc2cc(C(F)(F)F)ccc2O)c1 | 0.7 |
| CC(C)O[C@H]1C[C@@H](NC(=O)Nc2ccnnc2)C1 | 88.7 |

Block 2
Structure (SMILES): CCCCN(CCCC)C(=O)CN1C[C@H](c2cc(OC)c3c(c2)OCO3)[C@@H](C(=O)O)[C@@H]1CC(C)(C)CCC
Read-out: cell-free assay
Method: competition with immobilised ligand
Concentration: 1 µM
| target | remaining binding [%] |
| --- | --- |
| Insulin-like growth factor 1 receptor (IGF1R, Homo sapiens, UniProt P08069) | 100 |
| Dual specificity mitogen-activated protein kinase kinase 3 (MAP2K3, Homo sapiens, UniProt P46734) | 57.5 |
| Tyrosine-protein kinase Blk (BLK, Homo sapiens, UniProt P51451) | 95.8 |
| Phosphatidylinositol 4,5-bisphosphate 3-kinase catalytic subunit alpha isoform (PIK3CA, Homo sapiens, UniProt P42336, E542K) | 57.4 |
| Protein kinase C delta type (PRKCD, Homo sapiens, UniProt Q05655) | 100 |
| Mitogen-activated protein kinase kinase kinase 7 (MAP3K7, Homo sapiens, UniProt O43318) | 85.5 |
| Tyrosine-protein kinase receptor TYRO3 (TYRO3, Homo sapiens, UniProt Q06418) | 100 |
| Calcium/calmodulin-dependent protein kinase kinase 2 (CAMKK2, Homo sapiens, UniProt Q96RR4) | 100 |
| Tyrosine-protein kinase ABL1, phosphorylated (ABL1, Homo sapiens, UniProt P00519, T315I) | 80.7 |
| Tyrosine-protein kinase Fes/Fps (FES, Homo sapiens, UniProt P07332) | 100 |
| Serine/threonine-protein kinase tousled-like 2 (TLK2, Homo sapiens, UniProt Q86UE8) | 100 |
| Epidermal growth factor receptor (EGFR, Homo sapiens, UniProt P00533, del752-759) | 85 |
| Serine/threonine-protein kinase Nek1 (NEK1, Homo sapiens, UniProt Q96PY6) | 100 |
| Serine/threonine-protein kinase 32A (STK32A, Homo sapiens, UniProt Q8WU08) | 100 |

Block 3
SMILES: CCCCc1c(-c2ccc(O)cc2)[nH]c2nccnc12
Read-out: enzyme activity
Action: inhibitor
Concentration: 0.5 µM
Baseline: control
| target | remaining activity [%] |
| --- | --- |
| MAP kinase-activated protein kinase 3 (MAPKAPK3, Homo sapiens, UniProt Q16644) | 92.8 |
| Calcium/calmodulin-dependent protein kinase type II subunit beta (CAMK2B, Homo sapiens, UniProt Q13554) | 97 |
| Phosphorylase b kinase gamma catalytic chain, skeletal muscle/heart isoform (PHKG1, Homo sapiens, UniProt Q16816) | 86.7 |
| Cyclin-dependent kinase 1, with cyclin B (CDK1, Homo sapiens, UniProt P06493) | 45.2 |
| Tyrosine-protein kinase ABL1 (ABL1, Homo sapiens, UniProt P00519) | 79 |
| Serine/threonine-protein kinase WNK3 (WNK3, Homo sapiens, UniProt Q9BYP7) | 90.3 |
| Tyrosine-protein kinase Blk (BLK, Homo sapiens, UniProt P51451) | 85 |
| Mitogen-activated protein kinase kinase kinase kinase 4 (MAP4K4, Homo sapiens, UniProt O95819) | 60.9 |
| Homeodomain-interacting protein kinase 4 (HIPK4, Homo sapiens, UniProt Q8NE63) | 108 |
| Cyclin-dependent kinase 4, with cyclin D3 (CDK4, Homo sapiens, UniProt P11802) | 71 |
| Homeodomain-interacting protein kinase 2 (HIPK2, Homo sapiens, UniProt Q9H2X6) | 88.5 |
| 3-phosphoinositide-dependent protein kinase 1 (PDPK1, Homo sapiens, UniProt O15530) | 95.9 |
| Ephrin type-B receptor 4 (EPHB4, Homo sapiens, UniProt P54760) | 86 |
| Tyrosine-protein kinase receptor UFO (AXL, Homo sapiens, UniProt P30530) | 103 |
| Ribosomal protein S6 kinase alpha-6 (RPS6KA6, Homo sapiens, UniProt Q9UK32) | 72.7 |
| Testis-specific serine/threonine-protein kinase 2 (TSSK2, Homo sapiens, UniProt Q96PF2) | 96.7 |
| Tyrosine-protein kinase Srms (SRMS, Homo sapiens, UniProt Q9H3Y6) | 95.4 |
| Ephrin type-B receptor 1 (EPHB1, Homo sapiens, UniProt P54762) | 78 |
| Serine/threonine-protein kinase 17A (STK17A, Homo sapiens, UniProt Q9UEE5) | 84.9 |
| Ribosomal protein S6 kinase alpha-5 (RPS6KA5, Homo sapiens, UniProt O75582) | 101 |
| Dual specificity tyrosine-phosphorylation-regulated kinase 3 (DYRK3, Homo sapiens, UniProt O43781) | 90.9 |
| Cyclin-dependent kinase 6, with cyclin D3 (CDK6, Homo sapiens, UniProt Q00534) | 84.6 |
| Ephrin type-A receptor 4 (EPHA4, Homo sapiens, UniProt P54764) | 87.5 |

Block 4
Organism: Toxoplasma gondii
Read-out: parasite growth
Method: drug-repurposing HTS, FLUC reporter
Concentration: concentration not given
| Compound | activity |
| --- | --- |
| O=c1[nH]cc(F)c(=O)[nH]1 | active |
| CC(C)/N=c1\cc2n(-c3ccc(Cl)cc3)c3ccccc3nc-2cc1Nc1ccc(Cl)cc1 | active |
| [H]/N=C(/NCCCCC)N/N=C/c1c[nH]c2ccc(OC)cc12 | inactive |
| CCCCCCNC(=O)n1cc(F)c(=O)[nH]c1=O | active |
| COc1cc(NC(C)CCCN)c2ncccc2c1.O=P(O)(O)O.O=P(O)(O)O (stereo not drawn) | inactive |
| CN1CCN(CC/C=C2/c3ccccc3Sc3ccc(S(=O)(=O)N(C)C)cc32)CC1 | inactive |
| COc1cc2nc(N3CCN(C(=O)c4ccco4)CC3)nc(N)c2cc1OC | inactive |

Excerpt of the above (block 1):
| SMILES | remaining compound [%] |
| --- | --- |
| COc1ccc(CNc2ccc(C(=O)N3CCN(Cc4ccc(OC)c(OC)c4OC)CC3)cc2S(=O)(=O)Nc2cccc(OC)c2)cc1 | 2.38 |
| Cc1c(CN2C[C@H]3CC[C@@H](C2)NC3)oc2ccccc12 | 46 |
| CCOc1ccccc1NC(=O)c1cc2cc(C)ccc2[nH]1 | 47 |
| O=c1[nH]ncc(Nc2ccc3[nH]ncc3c2)c1Br | 4.76 |
